Assay results of several laboratories.
± marks the error that the study gave.

SMILES | assay | test system | conditions | how to read | measurement | value
Cc1nc(C)c(C=[N+]([O-])C(C)(C)C)nc1C | Western blot, item: MEF2D | mouse, MPTP model, substantia nigra nuclei | 10 mg/kg |  | protein level increase | 41%
CC[C@H]1[C@@H](O)[C@@H]2[C@H](CC[C@]3(C)[C@@H]([C@H](C)CCOS(=O)(=O)[O-])CC[C@@H]23)[C@@]2(C)CC[C@@H](O)C[C@@H]12.[Na+] | histology | ob/ob NASH mouse model, liver | oral, 3 mg/kg once daily, before treatment, baseline of 8 week study, scale 0 to 3 | direction not given | inflammation score | 3
C=C(c1ncc(C(=O)O)cn1)c1cc2c(cc1C)C(C)(C)CCC2(C)C | RNA sequencing, item: Cav1 mRNA | rat, brain | dose not given, 24 h, single dose | baseline: vehicle | log2 fold change | 0.75
COc1c2c(cc3oc(C)cc(=O)c13)O[C@H](C(C)(C)O[C@@H]1O[C@H](CO)[C@@H](O)[C@H](O)[C@H]1O)C2 | analgesia | mouse | oral, 2 mg/kg, 1 h |  | hot plate latency | 10.9 ± 1.47 s
C[C@H](CC(=O)C[C@@H](C)[C@H]1C[C@H](O)[C@@]2(C)C3=C(C(=O)C[C@]12C)[C@@]1(C)CCC(=O)C(C)(C)[C@@H]1C[C@@H]3O)C(=O)O | oral glucose tolerance test | mouse, STZ-induced type 1 diabetes | oral, dose not given, 1 h | baseline: control | blood glucose | 75 to 85%
CC1=CC(C)=[N+]2C1=Cc1ccc(CCC(=O)N3CCN(C(=O)c4cc(Cc5n[nH]c(=O)c6ccccc56)ccc4F)CC3)n1[B-]2(F)F |  | mice, orthotopic U87 glioblastoma, tumour-bearing brain | intravenous, 2.5 mg/kg, 1 h |  | maximum radiant efficiency | 5e+08
O=c1[nH]c(N2CCC3(CC2)CN(CCO)c2cc(F)cc(F)c23)nc2c1CCCC2 | qRT-PCR | NOD-SCID mouse xenograft, xenograft tumour | intraperitoneal, dose not given, 4 h after last dose |  | MYC mRNA level | decreased
CC(C)n1cnc(-c2ccc(F)cc2)c1-c1ncc(C(=O)Nc2ccc(N3CCN(C)CC3)cc2)[nH]1 |  | IPF patients | 30 mg once daily, 12 weeks, mean | baseline: baseline | change in FVC | -27 mL
O=C(CCc1ccc(CNC(C(=O)OC2CCCC2)C2CCCCC2)cn1)NO (stereo not shown) | flow cytometry, item: lysine acetylation | human, blood monocytes | concentration not given |  | duration of increased acetylation | ≥ 12 h
COc1ccc(C2CC(c3ccc(C)cc3)=Nc3ccccc3S2)cc1OC (stereo not shown) |  | Wistar rat, STZ-induced diabetes | oral, 10 mg/kg once daily, day 21 |  | blood glucose | 144 ± 4.34 mg/dL
CCc1nc(-c2ccc(-c3ccc(CCC(N)(CO)CO)cc3)cc2)co1 | phosphorylation | human whole blood | 60 min, 37 °C, up to 100 µM |  | Vmax | 1.11 ± 0.28 pmol/min
CC(C)c1cnc(-c2cc(Cl)ccc2F)cc1Nc1ccncc1C(=O)NC(CO)CO |  | human, advanced solid tumour | concentration not given, phase I |  | duration of stable disease | 35 to 283 days
CCCCCCOC(=O)Cc1c(C)n(C(=O)c2ccc(Cl)cc2)c2ccc(OC)cc12 | hot plate test | BALB/c mice | 100 mg/kg, 30 min |  | latency of nociceptive response | 16 ± 0.85 s
CN(C)C(=O)c1ccnc(N2Cc3cn(Cc4ccc(F)cc4F)nc3C2)n1 | myelinated axon density, electron microscopy | mouse cuprizone diet, corpus callosum | unit not given | baseline: cuprizone vehicle | effect size d | 1.81
CSCC[C@H](NC(=O)[C@H](CO)NC(=O)[C@@H](N)CO)C(=O)N[C@@H](CCCCN)C(=O)N[C@@H](CC(C)C)C(=O)N[C@@H](CO)C(=O)N[C@@H](Cc1ccccc1)C(=O)N[C@@H](CCCNC(=N)N)C(=O)N[C@@H](C)C(=O)N[C@@H](CCCNC(=N)N)C(=O)N[C@@H](C)C(=O)N[C@@H](Cc1ccc(O)cc1)C(=O)NCC(=O)N[C@@H](Cc1ccccc1)C(=O)N[C@@H](CCCNC(=N)N)C(=O)NCC(=O)N1CCC[C@H]1C(=O)NCC(=O)N1CCC[C@H]1C(=O)N[C@@H](CCC(N)=O)C(=O)N[C@@H](CC(C)C)C(=O)O | insulin tolerance test | DIO mouse | dose not given, 0 min, chronic treatment |  | blood glucose | 121 ± 9.63 mg/dL
NC(=O)[C@@H](CCCCNC(=O)CNC(=O)CCC(=O)NCCc1c[nH]cn1)NC(=O)[C@@H](CCC(=O)O)NC(=O)[C@@H](CCCCNC(=O)CNC(=O)CCC(=O)NCCc1c[nH]cn1)NC(=O)[C@@H](Cc1ccc(O)cc1)NC(=O)CN1CCN(CC(=O)O)CCN(CC(=O)O)CCN(CC(=O)O)CC1 [gallium-68 labelled] | PET/CT | nude BALB/c mouse, LS174T xenograft | dose not given, together with: TF2 6.0 nmol pretargeting | baseline: abdomen | tumour-to-background ratio | 38.2

SMILES | assay | test system | conditions | how to read | measurement | value
CCCCC1NC(=O)c2ccccc21 (racemic) |  | Sprague Dawley rat cerebral ischaemia-reperfusion, ischaemic core | 50 mg/kg | baseline: model group | GSH-Px activity | increased
CC[C@H](C)[C@@H]1NC(=O)[C@H](Cc2ccc(O)cc2)NC(=O)[C@@H](N)CSSC[C@@H](C(=O)N2CCC[C@H]2C(=O)N[C@@H](CCCCNC(=O)COCCOCCNC(=O)COCCOCCNC(=O)CC[C@H](NC(=O)CC[C@H](NC(=O)CCCCCCCCCCCCCCCCC(=O)O)C(=O)O)C(=O)O)C(=O)NCC(N)=O)NC(=O)[C@H](CC(N)=O)NC(=O)[C@H](CCC(N)=O)NC1=O |  | C57BL/6 mice, diet-induced obese | subcutaneous, 2 µmol/kg daily, 14 days | baseline: vehicle | body weight change | -13.2 ± 0.7%
CC(C)[C@H](NC(=O)CN)C(=O)N[C@@H](CCCCN)C(=O)NCC(=O)N[C@@H](CC(=O)O)C(=O)N[C@@H](CCCCN)C(=O)NCC(=O)N[C@@H](CC(N)=O)C(=O)N1CCC[C@H]1C(=O)NCC(=O)N[C@@H](Cc1c[nH]c2ccccc12)C(=O)N1CCC[C@H]1C(=O)NCC(=O)N[C@@H](C)C(=O)N1CCC[C@H]1C(=O)O |  | K1735 M4 melanoma, mouse | 100 µg/mL coating, peptide-coated plates |  | spreading cells | 70%
CCCCCCCCCn1cc(C(N)(CO)CO)nn1 |  | APP/PS1 mouse, dentate gyrus | dose not given |  | c-Fos positive cells | increased
N=C(N)NCCC[C@@H]1NC(=O)[C@H](CCCNC(=N)N)NC(=O)[C@H](CCCNC(=N)N)NC(=O)[C@H](Cc2ccc3ccccc3c2)NC(=O)[C@H](Cc2c[nH]c3ccccc23)NC(=O)[C@H](Cc2ccc3ccccc3c2)NC(=O)[C@H](CCCNC(=N)N)NC1=O |  | bacterial mimic liposomes | 5 µg/mL, 60 min |  | calcein leakage | ~60%
C[C@H](NC(=O)COC(=O)[C@H](C)NC(=O)CO)C(=O)O |  | water | pH 5, 37 °C |  | depolymerization rate constant | 0.055 h⁻¹
O=C(O)C1OC(Oc2cccc(-c3nc(N4CCOCC4)c4oc5ncccc5c4n3)c2)C(O)C(O)C1O (stereo not shown) | glucuronide formation | rat liver microsomes |  |  | Vmax | 95.3 ± 2.98 pmol/min/mg
CC(=O)[O-].O.O.[O-]c1ccc(Br)cc1C=NCCN1CCOCC1.[Zn+2] | nitric oxide scavenging |  | 240 µM |  | inhibition | 52.4%
Cc1cc(O)c(C=O)c2c1C(=O)Oc1c(CO)c(O)c3c(c1O2)C(O)OC3=O (stereo not shown) |  | streptozotocin-diabetic male albino rats, serum | dose not given, 9 weeks | baseline: diabetic control | LH level | increased
O=C(O)c1ccc(/C=C2\SC(=S)N(Cc3cccc(C(F)(F)F)c3)C2=O)cc1 |  | wild-type mouse, high-fat diet, blood | 2.5 mg/kg once daily, 6 weeks |  | blood insulin level | decreased
CCOc1c(C(C)(C)O)sc2cnc(Nc3ccc(N4CCC(N5CC6(COC6)C5)CC4)cc3OC)nc12 |  | human atrial trabeculae | 1 and 3 µM, stimulation 1 Hz | baseline: vehicle | developed tension | no effect
N#Cc1cnc2cc(OCC3CCNCC3)c(F)cc2c1Nc1cc(F)c(OCc2cccc(Cl)n2)cc1Cl |  | C57BL/6J mice, diet-induced MASH, partial hepatectomy, liver | dose not given, 72 h after hepatectomy |  | BrdU incorporation | increased
C[C@@H](O)[C@@H]1NC(=O)[C@H](CCCCN)NC(=O)[C@@H](Cc2ccc(NC(N)=O)cc2)NC(=O)[C@H](Cc2ccc(NC(=O)[C@@H]3CC(=O)NC(=O)N3)cc2)NC(=O)[C@H](NC(=O)[C@H](Cc2ccc(Cl)cc2)NC(=O)CN2CCN(CC(=O)O)CCN(CC(=O)O)CCN(CC(=O)O)CC2)CSSC[C@@H](C(=O)N[C@H](Cc2ccc(O)cc2)C(N)=O)NC1=O [gallium-68 labelled] | PET/CT | human neuroendocrine tumour patients, lung lesions | 60 min |  | SUVmean | 7.4
COc1ccc(C2NC(=O)NC(C)=C2C(C)=O)cc1 (stereo not shown) | DPPH radical scavenging |  |  | baseline: gallic acid | antioxidant potency ratio | ~2 fold
C=C(c1ccc(C(=O)O)c(F)c1)c1cc2c(cc1C)C(C)(C)C=CC2(C)C | RNA sequencing, item: Emr4 mRNA | rat, brain | dose not given, 24 h, single dose | baseline: vehicle | log2 fold change | 0.7

A few entries again:
SMILES | assay | test system | conditions | how to read | measurement | value
C[C@H](NC(=O)COC(=O)[C@H](C)NC(=O)CO)C(=O)O |  | water | pH 5, 37 °C |  | depolymerization rate constant | 0.055 h⁻¹
C=C(c1ncc(C(=O)O)cn1)c1cc2c(cc1C)C(C)(C)CCC2(C)C | RNA sequencing, item: Cav1 mRNA | rat, brain | dose not given, 24 h, single dose | baseline: vehicle | log2 fold change | 0.75
O=C(O)c1ccc(/C=C2\SC(=S)N(Cc3cccc(C(F)(F)F)c3)C2=O)cc1 |  | wild-type mouse, high-fat diet, blood | 2.5 mg/kg once daily, 6 weeks |  | blood insulin level | decreased
